Published values from different studies.
Several values in a cell are separate wells, animals, samples, runs or records. Numbers after ± are the reported error.
rep papain-like protease: Replicase polyprotein 1ab, papain-like protease (rep, Severe acute respiratory syndrome coronavirus 2, UniProt P0DTD1)
rep nsp14: Replicase polyprotein 1ab, nsp14 (rep, Severe acute respiratory syndrome coronavirus 2, UniProt P0DTD1)

Compound | target | assay | system | setting | how to read | measurement | result
CCCNC(=O)C1OC1C(=O)NC(C(=O)N1CCCC1C(=O)OC)C(C)CC (stereo not drawn) | rep papain-like protease | – | – | concentration not given, C111S mutant | baseline: positive control | activity | 49%
CC(C)C[C@H](NC(=O)OCc1ccccc1)C(=O)N[C@H](C=O)C[C@@H]1CCNC1=O | Replicase polyprotein 1ab, main protease C145A (rep, Severe acute respiratory syndrome coronavirus 2, UniProt P0DTD1, C3408A) | thermal shift | SARS-CoV-2 | – | – | melting temperature | 60.9 ± 0.1 °C
O=C1CC(=O)c2c(Cl)c(Cl)c(Cl)c(Cl)c21 | rep papain-like protease | enzyme activity, inhibitor | – | 10 µM | – | inhibition | ~50%
O=C(NC1CCN(c2ncnc3[nH]cnc23)CC1)c1cccc(S(=O)(=O)Nc2ccc3[nH]ncc3c2)c1 | rep nsp14 | enzyme activity | SARS-CoV-2 | concentration not given | – | inhibition | 36%
O=c1cc(-c2ccc(O)cc2)oc2c([C@@H]3OC[C@H](O)[C@H](O)[C@H]3O)c(O)c([C@@H]3O[C@H](CO)[C@@H](O)[C@H](O)[C@H]3O)c(O)c12 | Replicase polyprotein 1ab, papain-like protease E167A (rep, Severe acute respiratory syndrome coronavirus 2, UniProt P0DTD1, E1730A) | enzyme activity, inhibitor | – | concentration not given, PLpro E167A mutant | – | inhibition | 53.3%
O=C(NC1CCN(c2ncnc3[nH]cnc23)CC1)c1cccc(NS(=O)(=O)c2ccc(C(F)(F)F)cc2)c1 | rep nsp14 | enzyme activity | SARS-CoV-2 | 3.125 µM | – | inhibition | 77.4%
CC(C)CC(C(=O)N1CC2(CC1C#N)C(=O)Nc1ccccc12)N(C)C(=O)c1cc2c(F)cc(F)c(F)c2[nH]1 (stereo not drawn) | Replicase polyprotein 1ab, main protease K90R/A193V (rep, Severe acute respiratory syndrome coronavirus 2, UniProt P0DTD1, A3456V/K3353R) | – | – | 1 µM | – | remaining activity | -0.219% and -0.03% and -0.549% and -0.179% and -0.499% and 0.034%
CC(C)(C)[C@H](NC(=O)NC1(CS(=O)(=O)C(C)(C)C)CCCCC1)C(=O)N1C[C@H]2[C@@H]([C@H]1C(=O)N[C@H](C#N)C[C@@H]1CCNC1=O)C2(C)C | Replicase polyprotein 1ab, main protease (rep, Severe acute respiratory syndrome coronavirus 2, UniProt P0DTD1, C3408A) | thermal shift | SARS-CoV-2 | – | – | melting temperature | 60.5 ± 0.1 °C
CNC(=O)C[C@H](Cc1ccncc1)NC(=O)[C@@H](Cc1cccc(Br)c1)NC(=O)[C@@H](N)Cc1cccc(F)c1 | Replicase polyprotein 1ab, main protease (rep, Severe acute respiratory syndrome coronavirus 2, UniProt P0DTD1) | immobilized protein counterscreen | – | – | baseline: 3CL protease alone | enrichment index | 2500

Repeated from above:
Compound | target | assay | system | setting | how to read | measurement | result
CNC(=O)C[C@H](Cc1ccncc1)NC(=O)[C@@H](Cc1cccc(Br)c1)NC(=O)[C@@H](N)Cc1cccc(F)c1 | Replicase polyprotein 1ab, main protease (rep, Severe acute respiratory syndrome coronavirus 2, UniProt P0DTD1) | immobilized protein counterscreen | – | – | baseline: 3CL protease alone | enrichment index | 2500
CC(C)C[C@H](NC(=O)OCc1ccccc1)C(=O)N[C@H](C=O)C[C@@H]1CCNC1=O | Replicase polyprotein 1ab, main protease C145A (rep, Severe acute respiratory syndrome coronavirus 2, UniProt P0DTD1, C3408A) | thermal shift | SARS-CoV-2 | – | – | melting temperature | 60.9 ± 0.1 °C
